Literature values, collected from citations in different studies.
Protocols differ between the studies behind these lines. Numbers after ± are the reported error. ≈ marks a conversion by molar mass, not a printed value.

CC(C)(C(=O)O)c1ccc(C(O)CCCN2CCC(C(O)(c3ccccc3)c3ccccc3)CC2)cc1 (stereo not shown)
AUC(0-6 h) (healthy volunteers; dose not given, intermediate P-gp activity category): 148 to 218 ng·h/mL

CC(C)(c1ccc(O)cc1)c1ccc(O)cc1
uptake (HPLC; zebrafish embryos; waterborne, 4.38 nM, from 4 to 72 hpf): 0.196 pmol/embryo

CN[C@@H](C)C(=O)N[C@H]1CN(S(=O)(=O)c2cccc(S(=O)(=O)N3CC[C@H]4CC[C@@H](C(=O)NC(c5ccccc5)c5ccccc5)N4C(=O)[C@@H](NC(=O)[C@H](C)NC)C3)c2)CC[C@H]2CC[C@@H](C(=O)NC(c3ccccc3)c3ccccc3)N2C1=O
TEAE fatigue incidence (advanced solid tumour patients; dose not given, monotherapy): 17.4%

Nc1ccn([C@@H]2CS[C@H](CO)O2)c(=O)n1
oral bioavailability (rat): 80%

O=C(O)CN(CCN(CC(=O)O)CC(=O)O)CCN(CC(=O)O)CC(=O)O
protonation constant (log) (pH-potentiometry, refers to: logK4H; 0.1 M NaClO4; 25 °C): 2.9

CCN1[C@@H](C(=O)NC23CCC(C(=O)O)(CC2)CC3)[C@H](c2cccc(Cl)c2F)[C@]2(C(=O)Nc3cc(Cl)ccc32)C12CCCCC2
patients with related thrombocytopenia (patients with solid tumours or lymphomas; dose not given, grade ≥3, first-in-human trials): 14%

Cc1cc2c(s1)Nc1ccccc1N=C2N1CCN(C)CC1
clearance increase (healthy male volunteers; with: carbamazepine 200 mg twice daily for 2 weeks): 46%

CN1CC(=O)N2[C@H](c3ccc4c(c3)OCO4)c3[nH]c4ccccc4c3C[C@@H]2C1=O
AUC(0-inf) (rat; oral, 1 mg/kg): 10.2 ± 5.1 µg·min/mL

CNC(=O)c1c(C)oc2cc(Oc3ncnc4cc(OC)c(OC)cc34)ccc12
dose recovered (feces; 5 mg radiolabelled, time not given): 30%

CCCC(CCC)C(=O)O
EC10 (pericardial and yolk oedema; zebrafish embryo; nominal concentration): 38 µM

N#C[C@@]1(c2ccc3c(N)ncnn23)O[C@H](CO)[C@@H](O)[C@H]1O
plasma concentration (dog, plasma; intravenous, 2 mg/kg, 4 h, solution): 574 ng/mL

CCCCC1=NC2(CCCC2)C(=O)N1Cc1ccc(-c2ccccc2S(=O)(=O)Nc2noc(C)c2C)c(COCC)c1
renal excretion (human; baseline: dose): ~2%

CN(C)C(=N)N=C(N)N
non-renal clearance (healthy human): 162 mL/min

CC(C)(C)c1cc(C(C)(C)C)c(NC(=O)c2c[nH]c3ccccc3c2=O)cc1O
mean plasma concentration (human adults with cystic fibrosis, plasma): ~4 µM

CCN(c1cc(-c2ccc(CN3CCOCC3)cc2)cc(C(=O)NCc2c(C)cc(C)[nH]c2=O)c1C)C1CCOCC1
AML/MDS incidence (adult patients; dose not given, clinical trials): 0.6%

Nc1nc2c(ncn2COCCO)c(=O)[nH]1
oral bioavailability (rat; oral): 25%

Nc1nc(=O)n([C@@H]2CS[C@H](CO)O2)cc1F
bioavailability (mouse; 10 mg/kg): 96%

C[Si]1(C)O[Si](C)(C)O[Si](C)(C)O[Si](C)(C)O[Si](C)(C)O1
log KOA (0.13 0.24 µg/L in water, 24.6 °C): 4.94

Cn1ncnc1[C@H]1c2n[nH]c(=O)c3cc(F)cc(c23)N[C@@H]1c1ccc(F)cc1
AUC(0-24) increase (human moderate renal impairment; dose not given; baseline: normal renal function): ~56.8%

Cc1cn([C@H]2C=C[C@@H](CO)O2)c(=O)[nH]c1=O
oral bioavailability (rat; 50 mg/kg): 102%

c1cc2ccc3ccc4ccc5cccc6c(c1)c2c3c4c56
logKow (slow stirring): 7.24

CO[C@@H](C)Cn1c(=O)n(C)c2cnc3ccc(-c4cncc(C(C)(C)O)c4)cc3c21
apparent clearance CL/F (human; 20 mg and 325 mg, day 1, mean): 75.6 L/h

Cc1ccc(NC(=O)c2ccc(CN3CCN(C)CC3)cc2)cc1Nc1nccc(-c2cncc(-c3oncc3C)c2)n1
total brain concentration (mouse; oral gavage, dose not given, 7 days): > 1 µM

CCC(CC)C(=O)O
EC10 (pericardial and yolk oedema; zebrafish embryo; nominal concentration): 363 µM

CC(=O)OCC(CCn1cnc2cnc(N)nc21)COC(C)=O
oral bioavailability (rat; 40 mg/kg): 41%

C[C@@H](Oc1ccc(S(C)(=O)=O)cc1C(=O)N1C[C@@H]2C[C@]2(c2cc(C(F)(F)F)on2)C1)C(F)(F)F
time to steady state (human; once daily dosing): 6 days

CC(C)c1nc(CN(C)C(=O)N[C@H](C(=O)N[C@@H](Cc2ccccc2)C[C@H](O)[C@H](Cc2ccccc2)NC(=O)OCc2cncs2)C(C)C)cs1
CSF concentration (human; concentration not given, maximum at approved doses): 2.63 to 32 nM

CCOc1c([C@H](C)n2nc(C)c3c(N)ncnc32)cc(Cl)c(F)c1[C@@H]1CNC(=O)C1
Cmax decrease (human; oral, 20 and 30 mg once daily, high-fat meal; baseline: fasted): 42%

COc1cc(N2CCC(N3CCN(C)CC3)CC2)ccc1Nc1ncc(Cl)c(Nc2ccccc2P(C)(C)=O)n1
AUC(0-24) at steady state (patients with cancer, plasma; dose not given, geometric mean): 16200 ng·h/mL

CN(C(=O)n1cnc(-c2ccc[n+]([O-])c2)c1)C1CCCCC1
NOAEL (rat; oral, 6 months, repeated dosing): 10 mg/kg/day

CCN1CCN(Cc2ccc(Nc3ncc(F)c(-c4cc(F)c5nc(C)n(C(C)C)c5c4)n3)nc2)CC1
faecal excretion unchanged (human; 150 mg single dose, with: [14C]compound; baseline: dose): 7%

C#Cc1cccc(Nc2ncnc3cc(OCCOC)c(OCCOC)cc23)c1
decrease in bioavailability (human; taken on empty stomach): 40%

Oc1cc(Cl)ccc1Oc1ccc(Cl)cc1Cl
glucuronidation rate (human liver; 1 µM): 7 pmol/min/mg protein

Nc1ccn([C@@H]2O[C@H](CO)[C@@H](O)C2(F)F)c(=O)n1
dose reductions due to Leukopenia (pancreatic cancer patients; dose not given): 13%

Cc1cc(-c2nccc3c2ccn3CC(=O)Nc2ccc(-c3cnccn3)cn2)ccn1
cardiovascular parameters and body temperature (dog; oral, up to 200 mg/kg single dose): no effect

CO[C@H]1/C=C/O[C@@]2(C)Oc3c(C)c(O)c4c(O)c(c(/C=N/N5CCN(C)CC5)c(O)c4c3C2=O)NC(=O)/C(C)=C\C=C\[C@H](C)[C@H](O)[C@@H](C)[C@@H](O)[C@@H](C)[C@H](OC(C)=O)[C@@H]1C
victim drug AUC decrease (perpetrator; human; dose not given, with: atorvastatin as victim drug): 80%

Cc1ccc([C@@H]2O[C@H](CO)[C@@H](O)[C@H](O)[C@H]2O)cc1Cc1ccc(-c2ccc(F)cc2)s1
AUC(0-24) (human, preserved kidney function; 300 mg, steady state, mean): 19.3 µg·h/mL

CC1(C)CCC(CN2CCN(c3ccc(C(=O)NS(=O)(=O)c4ccc(NCC5CCOCC5)c([N+](=O)[O-])c4)c(Oc4cnc5[nH]ccc5c4)c3)CC2)=C(c2ccc(Cl)cc2)C1
apparent central volume (V2/F) (legacy population PK model; human; dose not given): 118 L

C[C@]1(c2nc3c(C(N)=O)cccc3[nH]2)CCCN1
pKa1: 9.22

Nc1nnc(-c2cccc(Cl)c2Cl)c(N)n1
protective index (mouse; i.p., 6 Hz seizure test, 32 mA): 0.5

CC(C)C[C@@H](NC(=O)[C@H](C)NC(=O)CNC(=O)[C@@H](NC=O)C(C)C)C(=O)N[C@@H](C)C(=O)N[C@@H](C(=O)N[C@H](C(=O)N[C@@H](C(=O)N[C@@H](Cc1c[nH]c2ccccc12)C(=O)N[C@H](CC(C)C)C(=O)N[C@@H](Cc1c[nH]c2ccccc12)C(=O)N[C@H](CC(C)C)C(=O)N[C@@H](Cc1c[nH]c2ccccc12)C(=O)N[C@@H](C(=O)N[C@@H](Cc1c[nH]c2ccccc12)C(=O)NCCO)C(C)C)[C@H](C)O)C(C)C)C(C)C
HC10 (hemolysis; rabbit red blood cells): > 3000 nM

Cn1nnc2c(C(N)=O)ncn2c1=O
clinically relevant concentration (human patients): 10 to 20 µmol/L

CCCCNC(=O)NS(=O)(=O)c1ccc(C)cc1
plasma clearance (rat): 0.454 mL/min/kg

CCCC(C)(C)C(=O)O
EC10 (small eyes; zebrafish embryo; nominal concentration): 540 µM

CCCCCCCCCCCCCCCC(=O)N[C@@H](CCC(=O)NCCCC[C@H](NC(=O)[C@H](C)NC(=O)[C@H](C)NC(=O)[C@H](CCC(N)=O)NC(=O)CNC(=O)[C@H](CCC(=O)O)NC(=O)[C@H](CC(C)C)NC(=O)[C@H](Cc1ccc(O)cc1)NC(=O)[C@H](CO)NC(=O)[C@H](CO)NC(=O)[C@@H](NC(=O)[C@H](CC(=O)O)NC(=O)[C@H](CO)NC(=O)[C@@H](NC(=O)[C@H](Cc1ccccc1)NC(=O)[C@@H](NC(=O)CNC(=O)[C@H](CCC(=O)O)NC(=O)[C@H](C)NC(=O)[C@@H](N)Cc1cnc[nH]1)[C@@H](C)O)[C@@H](C)O)C(C)C)C(=O)N[C@@H](CCC(=O)O)C(=O)N[C@@H](Cc1ccccc1)C(=O)N[C@H](C(=O)N[C@@H](C)C(=O)N[C@@H](Cc1c[nH]c2ccccc12)C(=O)N[C@@H](CC(C)C)C(=O)N[C@H](C(=O)N[C@@H](CCCNC(=N)N)C(=O)NCC(=O)N[C@@H](CCCNC(=N)N)C(=O)NCC(=O)O)C(C)C)[C@@H](C)CC)C(=O)O
breast cancer incidence (overweight or obese adults; 3.0 mg): 0.6%

O=C(O)CN1CCN(CC(=O)O)CCN(CC(=O)O)CCN(CC(=O)O)CC1
protonation constant (log) (pH-potentiometry, refers to: logK5H; 0.15 M NaClO4; 25 °C): 2.05

CCc1cc2c(cc1CC)CC(NC[C@H](O)c1ccc(O)c3[nH]c(=O)ccc13)C2
Tlast (human, plasma; inhaled): 24 h

Cc1cc(Nc2ccc(C(F)(F)F)c(F)c2)n2ncnc2n1
kinetic solubility (PBS; pH 6.5): 10 µM (≈ 3.11 µg/mL)

C=CC(=O)N1CCC([C@@H]2CCNc3c(C(N)=O)c(-c4ccc(Oc5ccccc5)cc4)nn32)CC1
AUC(0-8h) (human patients; oral, 160 mg once daily, day 8): 1280 ± 473 ng·h/mL

Cc1nccn1CC1CCc2c(c3ccccc3n2C)C1=O (stereo not shown)
half-life (rat; 4 mg/kg, without tariquidar): 28.2 ± 3.6 min

N#Cc1cc(NC(=O)[C@H]2c3ccccc3C(=O)N(CC(F)(F)F)[C@@H]2c2cccnc2)ccc1F
Cmax (dog, plasma; oral, 30 mg/kg): > 20 µM

COc1cc2c(Oc3ccc4[nH]c(C)cc4c3F)ccnc2cc1OCC1(N)CC1
oral bioavailability (dog; oral): ~67%

CC(C)n1c(=O)n(C)c2cnc3cc(F)c(-c4ccc(OCCCN5CCCCC5)nc4)cc3c21
Kp,uu (rat, brain over plasma): 0.17

C=C1[C@H](CO)[C@@H](O)C[C@@H]1n1cnc2c(=O)[nH]c(N)nc21
oral bioavailability (rat): 80%

CN(C)C(=O)c1cc2cnc(Nc3ccc(N4CCNCC4)cn3)nc2n1C1CCCC1
adverse event incidence (refers to: cough; advanced solid tumour or lymphoma patients; dose not given, continuous dosing; baseline: patients): 21.1%

A few entries again:
CN(C)C(=N)N=C(N)N
non-renal clearance (healthy human): 162 mL/min

CCCCC1=NC2(CCCC2)C(=O)N1Cc1ccc(-c2ccccc2S(=O)(=O)Nc2noc(C)c2C)c(COCC)c1
renal excretion (human; baseline: dose): ~2%

CCN(c1cc(-c2ccc(CN3CCOCC3)cc2)cc(C(=O)NCc2c(C)cc(C)[nH]c2=O)c1C)C1CCOCC1
AML/MDS incidence (adult patients; dose not given, clinical trials): 0.6%

CC(C)c1nc(CN(C)C(=O)N[C@H](C(=O)N[C@@H](Cc2ccccc2)C[C@H](O)[C@H](Cc2ccccc2)NC(=O)OCc2cncs2)C(C)C)cs1
CSF concentration (human; concentration not given, maximum at approved doses): 2.63 to 32 nM

CC1(C)CCC(CN2CCN(c3ccc(C(=O)NS(=O)(=O)c4ccc(NCC5CCOCC5)c([N+](=O)[O-])c4)c(Oc4cnc5[nH]ccc5c4)c3)CC2)=C(c2ccc(Cl)cc2)C1
apparent central volume (V2/F) (legacy population PK model; human; dose not given): 118 L

Cc1ccc([C@@H]2O[C@H](CO)[C@@H](O)[C@H](O)[C@H]2O)cc1Cc1ccc(-c2ccc(F)cc2)s1
AUC(0-24) (human, preserved kidney function; 300 mg, steady state, mean): 19.3 µg·h/mL

CC(=O)OCC(CCn1cnc2cnc(N)nc21)COC(C)=O
oral bioavailability (rat; 40 mg/kg): 41%

Cn1nnc2c(C(N)=O)ncn2c1=O
clinically relevant concentration (human patients): 10 to 20 µmol/L
